Assay results pooled from the literature.
Parts stem from different laboratories: compare values within a part only. “And” joins repeats or separate records; there may be more than shown.
Sequence of UniProt Q16853 (whole entry, looked up): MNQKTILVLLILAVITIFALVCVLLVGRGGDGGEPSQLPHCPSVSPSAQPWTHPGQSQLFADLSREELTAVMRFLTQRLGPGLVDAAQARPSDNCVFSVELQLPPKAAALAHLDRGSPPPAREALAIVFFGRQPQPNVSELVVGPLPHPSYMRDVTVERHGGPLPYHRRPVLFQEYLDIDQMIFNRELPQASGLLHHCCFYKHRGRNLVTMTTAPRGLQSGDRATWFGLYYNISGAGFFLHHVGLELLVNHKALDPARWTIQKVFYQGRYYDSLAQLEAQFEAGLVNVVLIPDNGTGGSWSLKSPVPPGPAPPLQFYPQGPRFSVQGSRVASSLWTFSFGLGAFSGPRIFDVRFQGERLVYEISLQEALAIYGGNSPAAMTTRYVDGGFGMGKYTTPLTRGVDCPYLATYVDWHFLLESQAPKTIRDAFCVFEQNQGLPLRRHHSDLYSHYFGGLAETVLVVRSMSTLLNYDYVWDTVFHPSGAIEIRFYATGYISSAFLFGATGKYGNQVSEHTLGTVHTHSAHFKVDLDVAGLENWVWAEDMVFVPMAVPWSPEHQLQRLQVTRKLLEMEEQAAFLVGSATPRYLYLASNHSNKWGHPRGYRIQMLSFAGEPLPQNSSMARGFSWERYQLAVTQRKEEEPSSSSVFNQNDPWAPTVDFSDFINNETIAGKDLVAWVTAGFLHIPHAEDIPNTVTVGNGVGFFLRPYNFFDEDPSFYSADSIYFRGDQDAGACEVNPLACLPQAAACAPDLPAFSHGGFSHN

Series 1
Structure (SMILES): CC(=O)NC/C(=C\F)COc1cccc(Cn2c(=S)[nH]c(=O)c3[nH]cnc32)c1
Effect on: enzyme activity
Action: inhibitor
Technique: fluorescence
Endpoint: inhibition
MPO: Myeloperoxidase (MPO, Homo sapiens, UniProt P05164)
Sequence of UniProt P05164 (whole entry, looked up): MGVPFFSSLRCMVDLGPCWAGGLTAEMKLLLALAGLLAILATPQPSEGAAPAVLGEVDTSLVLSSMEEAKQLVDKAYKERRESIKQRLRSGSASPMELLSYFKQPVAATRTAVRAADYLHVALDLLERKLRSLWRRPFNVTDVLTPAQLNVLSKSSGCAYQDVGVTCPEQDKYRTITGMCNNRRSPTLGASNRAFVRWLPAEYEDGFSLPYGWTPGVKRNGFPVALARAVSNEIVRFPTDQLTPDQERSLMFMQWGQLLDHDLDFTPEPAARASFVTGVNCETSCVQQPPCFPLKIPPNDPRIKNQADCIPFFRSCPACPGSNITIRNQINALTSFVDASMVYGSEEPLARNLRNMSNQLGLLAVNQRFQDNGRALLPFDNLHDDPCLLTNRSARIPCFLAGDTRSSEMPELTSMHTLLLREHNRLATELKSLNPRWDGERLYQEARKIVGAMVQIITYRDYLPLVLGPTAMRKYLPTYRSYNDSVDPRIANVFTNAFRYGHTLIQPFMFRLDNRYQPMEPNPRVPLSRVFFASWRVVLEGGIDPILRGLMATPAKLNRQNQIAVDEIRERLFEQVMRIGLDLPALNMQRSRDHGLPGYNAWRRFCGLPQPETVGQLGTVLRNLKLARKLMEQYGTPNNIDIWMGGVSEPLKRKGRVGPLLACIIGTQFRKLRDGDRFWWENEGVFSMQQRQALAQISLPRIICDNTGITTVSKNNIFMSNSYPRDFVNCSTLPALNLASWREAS
MPO; 4.6 nM: -6.15% and 0.524% and 1.52%
MPO; 1.111 µM: 86.6% and 94% and 93.4%
MPO; 30 µM: 99.4% and 99.8% and 99.2%
AOC3 (Homo sapiens, UniProt Q16853); 30 µM: 24.7% and 46.8%
MPO; 0.1235 µM: 56.3% and 47.9% and 40.4%
MPO; 13.7 nM: 14.1% and 4.63% and 9.44%

Series 2
Cell line: MDA-MB-468
Effect on: cell viability
Technique: CellCounting-Lite
Concentration: 2.743 nM
Temperature: 37 °C
Reading: higher = more viable cells
Endpoint: luminescence signal
CCn1cnc2c(NCc3nc4cc(Cl)c(Cl)cc4[nH]3)nc(N3CCN(Cc4ccncc4)CC3)nc21: 476000 a.u. and 462000 a.u. and 488000 a.u.
CCn1cnc2c(NCc3nc4cc(Cl)c(Cl)cc4[nH]3)nc(N3CCN(C(=O)[C@H](C)NC(C)=O)CC3)nc21: 538000 a.u. and 530000 a.u. and 504000 a.u.
CCCCOc1nc(NCc2nc3cc(Cl)c(Cl)cc3[nH]2)c2ncn(CC)c2n1: 463000 a.u. and 530000 a.u. and 506000 a.u.
CCn1cnc2c(NCc3nc4cc(Cl)c(Cl)cc4[nH]3)nc(N3CCN(C(=O)c4ccccc4)CC3)nc21: 451000 a.u. and 436000 a.u. and 480000 a.u.
CCn1cnc2c(NCc3nc4cc(Cl)c(Cl)cc4[nH]3)nc(N3CCN(C(=O)c4ccccn4)CC3)nc21: 220000 a.u. and 262000 a.u. and 294000 a.u.
CC(=O)N1CCN(c2nc(NCc3nc4cc(Cl)c(Cl)cc4[nH]3)c3ncn(-c4cnn(C)c4)c3n2)CC1: 568000 a.u. and 528000 a.u. and 490000 a.u.
CCn1cnc2c(NCc3nc4cc(F)c(F)cc4[nH]3)nc(N3CCn4ncnc4C3)nc21: 395000 a.u. and 459000 a.u. and 456000 a.u.
CCn1cnc2c(NCc3nc4cc(Cl)c(Cl)cc4[nH]3)nc(N3CCN(c4ccccn4)CC3)nc21: 458000 a.u. and 460000 a.u. and 504000 a.u.
CCn1cnc2c(NCc3nc4cc(Cl)c(Cl)cc4[nH]3)nc(N3CCN(C(=O)c4cccnc4)CC3)nc21: 277000 a.u. and 227000 a.u. and 205000 a.u.
CCn1cnc2c(NCc3nc4cc(Cl)c(Cl)cc4[nH]3)nc(N3CCC(NC(C)=O)CC3)nc21: 419000 a.u. and 450000 a.u. and 446000 a.u.
CCn1cnc2c(NCc3nc4cc(Cl)c(Cl)cc4[nH]3)nc(N3CCN(C(=O)c4ccncc4)CC3)nc21: 252000 a.u. and 205000 a.u. and 223000 a.u.
CC(=O)N1CCN(c2nc(NCc3nc4cc(Cl)c(Cl)cc4[nH]3)c3ncn(C)c3n2)CC1: 459000 a.u. and 443000 a.u. and 511000 a.u.
Cn1cc(-n2cnc3c(NCc4nc5cc(Cl)c(Cl)cc5[nH]4)nc(N4CCNCC4)nc32)cn1: 519000 a.u. and 587000 a.u. and 556000 a.u.
CCn1cnc2c(NCc3nc4cc(Cl)c(Cl)cc4[nH]3)nc(N3CCN(S(C)(=O)=O)CC3)nc21: 527000 a.u. and 480000 a.u. and 478000 a.u.
CCn1cnc2c(NCc3nc4ccc(F)c(F)c4[nH]3)nc(N3CCn4ncnc4C3)nc21: 497000 a.u. and 451000 a.u. and 545000 a.u.
CCn1cnc2c(NCc3nc4cc(Cl)c(Cl)cc4[nH]3)nc(N3CCn4ncnc4C3)nc21: 421000 a.u. and 431000 a.u. and 491000 a.u.
CC(=O)N1CCN(c2nc(NCc3nc4cc(Cl)c(Cl)cc4[nH]3)c3ncn(C(C)C)c3n2)CC1: 424000 a.u. and 502000 a.u. and 510000 a.u.
CCn1cnc2c(NCc3nc4cc(Cl)c(Cl)cc4[nH]3)nc(N3CCN(C(=O)CNC(C)=O)CC3)nc21: 430000 a.u. and 412000 a.u. and 462000 a.u.

Series 3
Compound: CCN1/C(=C/C=C2\CCCC(/C=C/C3=[N+](CC)c4ccccc4C3(C)C)=C2NCCCCCCCCN2CCC(Nc3nc4ccccc4n3Cc3ccc(F)cc3)CC2)C(C)(C)c2ccccc21
Cell line: U-87 MG
Concentration: concentration not given
Relative to: DMSO
Endpoint: log2 fold change
item: MVP mRNA: -1.04
item: ANLN mRNA: -2.36
item: ZNF460 mRNA: 2.48
item: INSIG1 mRNA: 1.77
item: PTPRU mRNA: -2
item: RMC1 mRNA: 1.01
item: MSH2 mRNA: -1.1
item: PCDHB8 mRNA: -1.79
item: PACC1 mRNA: 1.02
item: MYOZ2 mRNA: -1.79
item: ZHX2 mRNA: 1.46
item: BEX2 mRNA: 2.57
item: SNX9 mRNA: 0.944
item: SLC20A2 mRNA: -1.05
item: HOXB9 mRNA: 4.26
item: ZNF800 mRNA: 1.08

Series 4
Structure (SMILES): Cc1ncsc1-c1ccc(C(CO)NC(=O)C2CC(O)CN2C(=O)C(C(C)C)n2cc(-c3ccc(COc4c(-c5c(C)c(F)cc6[nH]ncc56)c(C5CC5)cc5c(N6CC7CC6CN7)nc(OC6CCOCC6)nc45)cc3)nn2)cc1 (stereo not drawn)
Endpoint: body weight
mouse, PK-59 xenograft; 0.3 mg/kg, day 14: 24.8 g and 25.4 g and 25.2 g
mouse, lung LXFA sample A PDX; 10 mg/kg twice weekly, day 0: 26.5 g
mouse, lung LXFA sample A PDX; 10 mg/kg twice weekly, day 15: 30.6 g and 27.5 g and 27.7 g
mouse, PK-59 xenograft; subcutaneous, 30 mg/kg once daily, day 22: 19.8 g and 20 g and 18.6 g and 19.5 g and 17.9 g
mouse, PK-59 xenograft; 1 mg/kg, day 17: 26.3 g and 24.8 g and 31.5 g
mouse, PK-59 xenograft; 1 mg/kg, day 10: 24.3 g and 30.3 g and 25.4 g and 24.7 g
mouse, PK-59 xenograft; 1 mg/kg, day 7: 24.8 g and 26.1 g and 26.3 g and 24.9 g and 30.5 g
mouse, PK-1 xenograft; 30 mg/kg twice weekly, day 7: 24.8 g

Repeated from above (series 3):
item: PTPRU mRNA: -2
item: RMC1 mRNA: 1.01
item: ZNF460 mRNA: 2.48
item: ZNF800 mRNA: 1.08
item: MYOZ2 mRNA: -1.79
item: SLC20A2 mRNA: -1.05
